Experimental data pooled from the literature.
Compare with care: the assays were run in different laboratories. ± gives the spread as reported.
SCTR: Secretin receptor (SCTR, Homo sapiens, UniProt P47872)
UniProt P47872, sequence (whole entry, looked up): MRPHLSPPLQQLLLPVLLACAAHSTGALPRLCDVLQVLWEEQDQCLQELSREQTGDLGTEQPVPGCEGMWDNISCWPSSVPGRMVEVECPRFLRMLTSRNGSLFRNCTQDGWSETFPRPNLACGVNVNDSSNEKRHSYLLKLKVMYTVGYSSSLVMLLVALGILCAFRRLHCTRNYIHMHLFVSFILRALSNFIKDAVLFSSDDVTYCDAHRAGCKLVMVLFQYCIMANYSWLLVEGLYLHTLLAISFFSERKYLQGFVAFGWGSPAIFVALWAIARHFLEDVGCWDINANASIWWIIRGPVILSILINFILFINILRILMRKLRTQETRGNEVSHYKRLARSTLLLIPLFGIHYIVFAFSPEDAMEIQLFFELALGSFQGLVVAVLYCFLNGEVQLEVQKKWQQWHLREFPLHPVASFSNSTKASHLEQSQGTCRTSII

Structure (SMILES)	target or system	test	test system	conditions	scale	quantity	value
COc1ccc(-c2cc(C(F)(F)F)nc(S(=O)(=O)CCCC(=O)Nc3ccc(F)cc3F)n2)cc1OC	SCTR	increase of tracer binding, TR-FRET	HEK293 membranes	together with: Fluo-Sec 6 nM		EC50	6.3 ± 3.8 µM
[64Cu+2].c1ccc(CNCc2ccc(CN3CCCN4CCNCCCN(CC4)CC3)cc2)nc1	CXCR4		NOD/SCID mouse, U87 and U87-stb-CXCR4 xenografts, pancreas	iv, 30 min, ex vivo		tissue uptake	1.31 ± 0.18 %ID/g
CCCCc1ccc(C(=O)O[C@H]2[C@H](C)O[C@@H](O[C@H]3[C@H](N(C)C)[C@@H](O)[C@H](O[C@H]4[C@@H](CC=O)C[C@@H](C)[C@@H](O[C@H]5CC[C@H](N(C)C)[C@@H](C)O5)/C=C/C=C/C[C@@H](C)OC(=O)C[C@@H](O)[C@@H]4OC)O[C@@H]3C)C[C@@]2(C)O)cc1	HGC-27	cell growth or viability, CCK-8		72 h		IC50	1.66 µM
COc1ccc(-c2cc(C(F)(F)F)nc(NCc3ccccc3)n2)cc1	SCTR	increase of tracer binding, TR-FRET	HEK293 membranes	together with: Fluo-Sec 6 nM		EC50	5.5 ± 3.4 µM
CCOc1cc(C(=O)Nc2ccc(Cl)c(-c3nc4ccccc4[nH]3)c2)cc(OCC)c1OCC	NIH3T3-Gli-Luc	Hedgehog signalling, Gli-luciferase reporter		together with: Shh-conditioned medium		IC50	0.18 ± 0.03 µM
COCC/N=C(\S)N/N=C(\C)c1ccccc1O	LDR	cell viability, MTS		4 days		IC50	3.6 µM
COc1cc2c(NC3CCN(C(C)C)CC3)nc(N3CCC(F)(F)CC3)nc2cc1OCCCN1CCCC1	22Rv1	cell growth or viability, CCK-8		7 days		IC50	> 10 µM
CCN(CC)CCCNC(=O)CSc1c2c(nc3cc(Cl)ccc13)CCCC2	LDR	cell viability, MTS		4 days		IC50	43.5 µM
CCC(C(=O)O)C1CCC(C)C(C(C)C(O)C(C)C(=O)C(CC)C2OC3(C=CC(NCc4cn(C56CC7CC(CC(C7)C5)C6)nn4)C4(CCC(C)(C5CCC(O)(CC)C(C)O5)O4)O3)C(C)CC2C)O1 (stereo not drawn)	HMLER CD24high/CD44low	cell viability, CellTiter-Blue		72 h		IC50	0.45 ± 0.05 µM
N=C(N/N=C/c1cccs1)N/N=C/c1cccs1	IMR-90	cell growth or viability, crystal violet		72 h		IC50	47.9 µM
CC(C)c1ccc(/C=C/C(=O)NC(=O)N[C@@H]2O[C@H](CO)[C@@H](O)[C@H](O)[C@H]2O)cc1	L1210, CEM and HeLa	cell growth		range over three cell lines		IC50	16 to 45 µM
CC(C)c1cccc(C(C)C)c1-n1c(Cl)c(Cl)n(-c2c(C(C)C)cccc2C(C)C)c1=[Se].[Cl][Ag]	A-431	cell growth or viability, MTT		72 h		IC50	1.8 µM
N=C(N)NCCC[C@H](N)C(=O)N1CCC[C@H]1C(=O)N[C@H](CC(=O)N[C@@H](Cc1ccc(O)cc1)C(=O)O)c1cccc2ccccc12	BT-474 (HER2-overexpressing)					IC50	> 50 µM
CCN1/C(=C/C=C2\CCCC(/C=C/C3=[N+](CC)c4ccccc4C3(C)C)=C2NCCCCCCCCN2CCC(Nc3nc4ccccc4n3Cc3ccc(F)cc3)CC2)C(C)(C)c2ccccc21	U-87 MG	cell growth or viability, CCK-8		72 h		IC50	~1 µM
COc1cc(CN2CC3CC(CCN(C[C@H]4O[C@@H](n5cnc6c(N)ncnc65)[C@H](O)[C@@H]4O)C(C)C)CC3C2)cc(OC)c1OC (stereo partly drawn)	H460 R231Q	cell proliferation, CCK-8		72 h		IC50	> 100 µM
CC(=O)Oc1ccc(/C=C/C(=O)Nc2nc(=O)n([C@@H]3O[C@H](C)[C@@H](OC(C)=O)[C@H]3OC(C)=O)cc2F)cc1	BxPC-3	cell viability, MTT		72 h		IC50	13.6 ± 2.48 µM
CN(C)C(CNC(=O)Nc1cc(C(F)(F)F)ccc1N1CCOCC1)c1ccncc1 (stereo not drawn)	IMR-90	cell growth or viability, crystal violet		48 h		IC50	1000 µM
NS(=O)(=O)Nc1ncnc(OCCOc2ncc(Br)cn2)c1-c1ccc(Br)cc1		metabolite formation	male Beagle dog, liver microsomes	500 mg/kg daily for 4 weeks		Vmax	1010 ± 46 pmol/min/mg
O=Cc1c(O)ccc2ccccc12	HUVEC	RNA sequencing, refers to: GIMAP4		75 µM, 24 h	reference: DMSO	log2 fold change	-3.43
CCCCC/C=C/C(=O)CCc1ccc(O)c(OC)c1	mAb 4-AT4	antibody binding, indirect competitive ELISA		together with: coating antigen hapten 3-OVA		IC50	> 4 µg/mL
COc1c(C)c(OS(=O)(=O)c2ccccc2)c(C)c2c1C(=O)CC(c1ccccc1)O2 (stereo not drawn)	KKU-M213	cell growth or viability, SRB		72 h		IC50	> 50 µM
COc1cc(CCC(C)=O)ccc1O	mAb 4-AT4	antibody binding, indirect competitive ELISA		together with: coating antigen hapten 4-OVA		IC50	> 4 µg/mL
NCCCC[C@H](NC(=O)[C@H](CCCCN)NC(=O)[C@@H](N)CCCCN)C(=O)NCC(=O)NCC(=O)NCCCCCCCCNC(=O)COc1ccc(-c2ccccn2)cc1	Jurkat			25 µM, 1 h, 37 °C		cellular uptake of iridium	7.72 ± 0.68 fmol/cell
CC(C)=CCC1=C([O-])C(=O)c2ccccc2C1=O.CC(C)=CCC1=C([O-])C(=O)c2ccccc2C1=O.[Cu+2].c1ccc(-c2ccccn2)nc1	A2780	cell viability, MTT		24 h		IC50	9.4 ± 3 µM
CCCC[C@H](NC(=O)CCCCCCCNC(=O)CN1CCN(CC(=O)O)CCN(CC(=O)O)CC1)C(=O)N[C@H]1CC(=O)NCCCC[C@@H](C(N)=O)NC(=O)[C@H](Cc2c[nH]c3ccccc23)NC(=O)[C@H](CCCNC(=N)N)NC(=O)[C@@H](Cc2ccccc2)NC(=O)[C@H](Cc2c[nH]cn2)NC1=O [copper-64 labelled]			C57 mice, intestine	intravenous, 0.37 MBq, 24 h		tissue uptake	0.74 ± 0.23 %ID
N=C(S)N/N=C/c1ncc(C(F)(F)F)cc1Cl	LDR	cell viability, MTS		4 days		IC50	12 µM
COc1cc2c(cc1C(C)=O)C(=O)CC1C(C)(C)c3nc(C)ncc3C[C@]21C (mixture of isomers)	TM3	cell growth or viability, SRB		24 h		IC50	> 100 µM

Excerpt of the above:
Structure (SMILES)	target or system	test	test system	conditions	scale	quantity	value
NCCCC[C@H](NC(=O)[C@H](CCCCN)NC(=O)[C@@H](N)CCCCN)C(=O)NCC(=O)NCC(=O)NCCCCCCCCNC(=O)COc1ccc(-c2ccccn2)cc1	Jurkat			25 µM, 1 h, 37 °C		cellular uptake of iridium	7.72 ± 0.68 fmol/cell
CC(C)=CCC1=C([O-])C(=O)c2ccccc2C1=O.CC(C)=CCC1=C([O-])C(=O)c2ccccc2C1=O.[Cu+2].c1ccc(-c2ccccn2)nc1	A2780	cell viability, MTT		24 h		IC50	9.4 ± 3 µM
CCCC[C@H](NC(=O)CCCCCCCNC(=O)CN1CCN(CC(=O)O)CCN(CC(=O)O)CC1)C(=O)N[C@H]1CC(=O)NCCCC[C@@H](C(N)=O)NC(=O)[C@H](Cc2c[nH]c3ccccc23)NC(=O)[C@H](CCCNC(=N)N)NC(=O)[C@@H](Cc2ccccc2)NC(=O)[C@H](Cc2c[nH]cn2)NC1=O [copper-64 labelled]			C57 mice, intestine	intravenous, 0.37 MBq, 24 h		tissue uptake	0.74 ± 0.23 %ID
